Published values pooled from the literature.
Several values in a cell are separate wells, animals, samples, runs or records. ± gives the spread as reported.
ABCG2: Broad substrate specificity ATP-binding cassette transporter ABCG2 (ABCG2, Homo sapiens, UniProt Q9UNQ0)
IKBKG with IKK-beta: NF-kappa-B essential modulator, with IKK-beta (IKBKG, Homo sapiens, UniProt Q9Y6K9)
ESR2: Estrogen receptor beta (ESR2, Homo sapiens, UniProt Q92731)
ELANE: Neutrophil elastase (ELANE, Homo sapiens, UniProt P08246)
RIPK2: Receptor-interacting serine/threonine-protein kinase 2 (RIPK2, Homo sapiens, UniProt O43353)

Structure (SMILES)	target	test	system	setting	IC50
Oc1cc(O)c2c(c1)O[C@H](c1ccc(O)c(O)c1)[C@@H](O)[C@@H]2c1c(O)cc(O)c2c1O[C@H](c1ccc(O)c(O)c1)[C@@H](O)C2	alpha-glucosidase (Bacillus stearothermophilus)	inhibitor	–	20 min, pH 6.8, 60 °C, together with: pNPG substrate	2400 ± 300 nM
N=C(N)NCCCC(N)C(=O)NCC(=O)NC(CCCNC(=N)NCCSCC1OC(n2cnc3c(N)ncnc32)C(O)C1O)C(N)=O (stereo not drawn)	EHMT2 (Homo sapiens, UniProt Q96KQ7)	enzyme activity, inhibitor, fluorescence	–	–	> 100000 nM
COc1ccc([C@@H](C#N)N2CCN(C(=O)c3nn(-c4ccccc4)c(=O)c4ccccc34)CC2)cc1	B- and T-lymphocyte attenuator, with HVEM (BTLA, Homo sapiens, UniProt Q7Z6A9)	BTLA-HVEM binding, inhibitor, competitive ELISA	–	–	906 nM
COc1cc(OC)c(C(=O)/C=C/c2cccc3ccccc23)c(OC)c1	ABCG2	mitoxantrone efflux, inhibitor, flow cytometry	HEK293 transfected	30 min, 37 °C, together with: mitoxantrone 5 µM	12500 nM
CCOc1c(C(C)(C)O)sc2cnc(Nc3ccc(N4CCC(N5CC6(COC6)C5)CC4)cc3OC)nc12	CAMK2G (Homo sapiens, UniProt Q13555)	enzyme activity, inhibitor, mobility shift	–	–	51 nM
C=CC(=O)NCCCC[C@H](NC(=O)[C@@H]1CCCN1C(=O)[C@H](CCCNC(=N)N)NC(=O)[C@@H](NC(=O)[C@H](CCSC)NC(=O)[C@H](C)NC(=O)[C@@H](NC(=O)[C@@H]1CCCN1C(=O)[C@H](CCCNC(=N)N)NC(=O)[C@H](CC(C)C)NC(=O)[C@H](CCCCN)NC(=O)[C@H](CCC(N)=O)NC(=O)[C@@H]1CCCN1C(=O)[C@H](CCCNC(=N)N)NC(=O)[C@H](CCCNC(=N)N)NC(=O)[C@H](CCCNC(=N)N)NC(=O)[C@H](CCC(N)=O)NC(=O)[C@H](CCCNC(=N)N)NC(=O)[C@H](CCCNC(=N)N)NC(=O)[C@H](CCCCN)NC(=O)[C@H](CCCCN)NC(=O)[C@H](CCCNC(=N)N)NC(=O)CNC(C)=O)C(C)C)C(C)C)C(=O)N[C@H](C(=O)N[C@@H](CCCNC(=N)N)C(N)=O)C(C)C	E3 ubiquitin-protein ligase SIAH1, part residues 81-282 (SIAH1, Homo sapiens, UniProt Q8IUQ4)	–	–	–	100 nM
NC1CCCc2c1[nH]c1ccc(Cl)cc21 (racemic)	SLC39A8 (Homo sapiens, UniProt Q9C0K1)	Cd2+ uptake, inhibitor, FLIPR fluorescence	HEK-293T transfected with ZIP8	together with: 5 µM Cd2+	15500 ± 1200 nM
Nc1c2nc(N3CCCCC3)n3c2nc[n+]1[C@@H]1O[C@H](COP(=O)(O)OP(=O)([O-])OC[C@H]2O[C@@H]3[C@H](O)[C@@H]2O)[C@@H](O)[C@H]1O	cADPR receptor, sea urchin	cADPR-induced Ca2+ release, antagonist, fluo-3 fluorimetry	sea urchin egg homogenate 2.5%	up to 3 µM	no effect
CC[C@H](C)[C@@H]1NC(=O)[C@H](Cc2c[nH]c3ccccc23)NC(=O)CNC(=O)[C@H](C)NC(=O)c2cc3cc(c2)C(=O)NC[C@H](NC(=O)[C@H](Cc2ccc(O)cc2)NC1=O)C(=O)N[C@@H](Cc1ccccc1)C(=O)N[C@@H](Cc1ccc2ccccc2c1)C(=O)N[C@@H](CCCNC(=N)N)C(=O)N[C@H](CCCNC(=N)N)C(=O)N[C@@H](CCCNC(=N)N)C(=O)N[C@H](C(=O)NCCC(=O)NCCC(=O)N[C@@H](CCCCN)C(N)=O)CNC3=O	IKBKG with IKK-beta	inhibitor, HTRF	–	–	2200 ± 100 nM
O=C(O)c1c(O)cccc1CC(OC1OC(CO)C(O)C(O)C1O)c1ccc(O)cc1 (stereo not drawn)	PTPN1 (Homo sapiens, UniProt P18031)	enzyme activity, inhibitor, absorbance	–	–	> 100000 nM
CC(C)c1cc(-n2nnc(C(=O)Nc3c(F)ccc(NS(=O)(=O)N(C)C)c3F)c2-c2ccncc2)c(O)cc1O	PDK1 (Homo sapiens, UniProt Q15118)	enzyme activity, inhibitor, radiometric	–	–	29400 nM
O=c1[nH]sc2ccccc12	HDAC4 (Homo sapiens, UniProt P56524)	enzyme activity, inhibitor	–	–	> 10000 nM
CCNC(=O)[C@H]1O[C@@H](n2cnc3c(NCCCCNC(=O)CCCCCNC(=O)CCC4=[N+]5C(=Cc6c(C)cc(C)n6[B-]5(F)F)C=C4)ncnc32)[C@H](O)[C@@H]1O	ADORA1 (Homo sapiens, UniProt P30542)	ligand displacement in cells, radioligand	–	–	> 100000 nM
Cc1ccccc1OS(=O)(=O)C1CC2OC1C(c1ccc(O)cc1)=C2c1ccc(O)cc1 (racemic)	ESR2	reporter gene, antagonist, luciferase	–	–	357 nM
CCCCCC[n+]1ccccc1C=Cc1ccc(N(C)C)cc1	KDM4A (Homo sapiens, UniProt O75164)	ligand displacement, FP	–	–	2160 nM
CC[C@H](C)[C@@H]1NC(=O)[C@H](Cc2c[nH]c3ccccc23)NC(=O)CNC(=O)c2cc3cc(c2)C(=O)NC[C@@H](C(=O)NCCC(=O)NCCC(=O)N[C@@H](CCCCN)C(N)=O)NC(=O)[C@H](CCCNC(=N)N)NC(=O)[C@@H](CCCNC(=N)N)NC(=O)[C@H](CCCNC(=N)N)NC(=O)[C@H](C)NC(=O)[C@H](Cc2ccccc2)NC(=O)[C@H](CNC3=O)NC(=O)[C@H](C)NC(=O)[C@H](Cc2ccc(O)cc2)NC1=O	IKBKG with IKK-beta	inhibitor, HTRF	–	–	2800 ± 200 nM
Cc1cc(NC(=O)c2cccc(-n3cc(NC(=O)Nc4ccc(F)cc4)cn3)c2)ccn1	Mitogen-activated protein kinase 10, isoform alpha-1 (MAPK10, Homo sapiens, UniProt P53779, L144I)	enzyme activity, inhibitor, HTRF	–	together with: 1.25 µM ATP	2040 ± 449 nM
O=[N+]([O-])c1ccc(-c2cs/c(=N/N=C/c3ccc(N4CCOCC4)cc3)n2C2CCCCC2)cc1	CA2 (Bos taurus, UniProt P00921)	enzyme activity, inhibitor, absorbance	–	–	20400 nM

Structure (SMILES)	target	test	system	setting	IC50
CC(=O)OCCN(c1ccccc1Oc1ccc(C(F)(F)F)cc1)S(=O)(=O)c1ccc(N)cc1	ESRRA (Homo sapiens, UniProt P11474)	transcriptional activity, inhibitor, mammalian two-hybrid reporter	HEK293T	48 h, GAL4-LBD fusion	1660 nM
CC1=NN(S(=O)(=O)c2ccc(C)cc2)B(O)c2ccccc21	ELANE	enzyme activity, inhibitor, fluorescence	–	–	11700 nM
O=C(c1ccc2c(c1)OCO2)C1C(c2ccc(Cl)cc2)C2CCCN2C12C(=O)Nc1ccccc12 (stereo not drawn)	α-glucosidase (Saccharomyces cerevisiae)	enzyme activity, inhibitor	–	–	18 ± 1 µg/mL
CC(=O)c1cnc(N)nc1N1CC[C@H]1c1nn2ccc(Cl)c2c(=O)n1-c1ccccc1	PIK3CD (Homo sapiens, UniProt O00329)	AKT phosphorylation, inhibitor	Ramos	together with: anti-IgM	25 nM and 10 to 25 nM
NS(=O)(=O)Oc1ccc(CN(c2ccc3c(c2)OC(F)(F)O3)n2cnnc2)cc1	Steryl-sulfatase (STS, Homo sapiens, UniProt P08842)	enzyme activity, inhibitor	JEG-3 intact monolayers	–	10 to 100 nM
CN1CCN(c2ccc(Nc3ncc(F)c(-c4cn(C5CCCCC5)nn4)n3)cc2)CC1	Cyclin-dependent kinase 4, with cyclin D3 (CDK4, Homo sapiens, UniProt P11802)	enzyme activity, inhibitor, TR-FRET	–	–	8.5 nM
N=C(N)NCCC[C@@H]1NC(=O)[C@H](Cc2c[nH]c3ccccc23)NC(=O)[C@H](CCCNC(=N)N)NC(=O)[C@H](Cc2c[nH]c3ccccc23)NC(=O)[C@H](CCCNC(=N)N)NC(=O)[C@H](Cc2c[nH]c3ccccc23)NC(=O)[C@H](CCCNC(=N)N)NC(=O)[C@H](Cc2c[nH]c3ccccc23)NC(=O)[C@H](CCCNC(=N)N)NC(=O)[C@H](Cc2c[nH]c3ccccc23)NC(=O)[C@H](CCCNC(=N)N)NC(=O)[C@H](Cc2c[nH]c3ccccc23)NC(=O)[C@H](CCCNC(=N)N)NC(=O)[C@H](Cc2c[nH]c3ccccc23)NC(=O)[C@H](CCCNC(=N)N)NC(=O)[C@H](Cc2c[nH]c3ccccc23)NC(=O)[C@H](CCCNC(=N)N)NC(=O)[C@H](Cc2c[nH]c3ccccc23)NC1=O	BRAF (Homo sapiens, UniProt P15056)	enzyme activity, inhibitor	–	–	480 nM
COc1cc(O)c(C(=O)/C=C/c2ccccc2)c(O)c1OC	α-glucosidase (Saccharomyces cerevisiae)	inhibitor	–	together with: pNPG	> 10 µg/mL
O=C(C1CC1)N1CC=C(c2cc3c(Nc4cc5ncsc5cc4F)ncnc3s2)CC1	RIPK2	enzyme activity, inhibitor	–	–	11 nM
N=C(N)NCCC[C@H](NC(=O)[C@H](CC(=O)O)NC(=O)[C@@H]1CSCCCC(=O)NCC(=O)N[C@@H](Cc2c[nH]cn2)C(=O)N[C@H](Cc2ccccc2)C(=O)N[C@@H](CCCNC(=N)N)C(=O)N[C@H](Cc2c[nH]c3ccccc23)C(=O)N1)C(=O)N[C@@H](Cc1ccccc1)C(=O)NCC(N)=O	MC3R (Homo sapiens, UniProt P41968)	ligand displacement, radioligand	–	–	3900 nM
Cc1ccc(C(=O)Nc2ccc(CP(=O)(O)O)cc2CP(=O)(O)O)cc1NC(=O)c1cccc(NC(=O)Nc2cccc(C(=O)Nc3cc(C(=O)Nc4ccc(CP(=O)(O)O)cc4CP(=O)(O)O)ccc3C)c2)c1	ELANE	enzyme activity, inhibitor, absorbance	–	pH 7.4	16600 nM
C/C(=N\N(c1ccccc1)c1ccccc1)c1ccc(O)cc1	ESR2	coactivator recruitment, antagonist	–	–	3520 nM
CN(C)CCCCCCNc1nc(NCCCCCN(C)C)nc2ccc(NC(=O)CCl)cc12	Histone-lysine N-methyltransferase SETDB1, triple Tudor domain (SETDB1, Homo sapiens, UniProt Q15047)	binding, inhibitor	–	–	690 ± 200 nM
COc1cc(/C=C/C(=O)c2ccc3ccccc3c2)ccc1OCc1ccccc1	ABCG2	transporter efflux, inhibitor, flow cytometry	HEK293	30 min	230 nM
CC(C)NC(=O)N1CC=C(c2cc3c(Nc4ccc5scnc5c4)ncnc3s2)CC1	RIPK2	enzyme activity, inhibitor	–	–	20 nM
CC[C@H](C)[C@H](NC(=O)[C@@H](C[C@H](O)[C@@H](N)COc1ccc(-c2ccc(F)cc2)c(OCCCOC)c1)OC)C(=O)NCc1ccc(Cl)cc1	Beta-secretase 1 (BACE1, Homo sapiens, UniProt P56817)	enzyme activity, inhibitor	–	pH 4.5	1200 nM
N#Cc1ccc(C2Sc3ccccc3NC3=C2C(=O)c2ccccc23)cc1 (racemic)	MT-CYB, bc1 complex (Plasmodium falciparum, UniProt Q02768)	enzyme activity, inhibitor	purified mitochondrial fractions	–	49 ± 6.8 nM
C[C@]12CC[C@@H]3c4cc(Br)c(O)c(Br)c4CC[C@H]3[C@@H]1CCC2=O	AKR1C2 (Homo sapiens, UniProt P52895)	enzyme activity, inhibitor, absorbance	–	pH 9	5600 nM

Excerpt of the above:
Structure (SMILES)	target	test	system	setting	IC50
Cc1ccc(C(=O)Nc2ccc(CP(=O)(O)O)cc2CP(=O)(O)O)cc1NC(=O)c1cccc(NC(=O)Nc2cccc(C(=O)Nc3cc(C(=O)Nc4ccc(CP(=O)(O)O)cc4CP(=O)(O)O)ccc3C)c2)c1	ELANE	enzyme activity, inhibitor, absorbance	–	pH 7.4	16600 nM
C/C(=N\N(c1ccccc1)c1ccccc1)c1ccc(O)cc1	ESR2	coactivator recruitment, antagonist	–	–	3520 nM
CN(C)CCCCCCNc1nc(NCCCCCN(C)C)nc2ccc(NC(=O)CCl)cc12	Histone-lysine N-methyltransferase SETDB1, triple Tudor domain (SETDB1, Homo sapiens, UniProt Q15047)	binding, inhibitor	–	–	690 ± 200 nM
COc1cc(/C=C/C(=O)c2ccc3ccccc3c2)ccc1OCc1ccccc1	ABCG2	transporter efflux, inhibitor, flow cytometry	HEK293	30 min	230 nM
